Published values collected from several papers.
Numbered parts are unrelated; each lists some results of a single study. Substitutions count along the parent as printed.
Chain of UniProt O00762 (whole entry, looked up): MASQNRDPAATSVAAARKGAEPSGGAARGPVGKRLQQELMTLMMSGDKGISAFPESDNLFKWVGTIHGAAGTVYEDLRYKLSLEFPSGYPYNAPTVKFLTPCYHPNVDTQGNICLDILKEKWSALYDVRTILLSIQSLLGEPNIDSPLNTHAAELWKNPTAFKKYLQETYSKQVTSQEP
Chain of UniProt Q9H832 (whole entry, looked up): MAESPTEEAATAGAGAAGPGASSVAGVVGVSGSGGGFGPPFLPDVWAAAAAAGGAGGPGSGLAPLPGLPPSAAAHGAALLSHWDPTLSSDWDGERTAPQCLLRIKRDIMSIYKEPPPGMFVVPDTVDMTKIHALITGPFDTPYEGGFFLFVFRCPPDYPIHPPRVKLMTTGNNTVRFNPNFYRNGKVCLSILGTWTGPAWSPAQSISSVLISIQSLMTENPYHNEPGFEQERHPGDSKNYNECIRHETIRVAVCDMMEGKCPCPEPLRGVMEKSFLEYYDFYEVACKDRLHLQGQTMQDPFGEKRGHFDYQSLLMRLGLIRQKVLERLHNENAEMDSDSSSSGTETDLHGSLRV
Chain of UniProt Q9C0C9 (whole entry, looked up): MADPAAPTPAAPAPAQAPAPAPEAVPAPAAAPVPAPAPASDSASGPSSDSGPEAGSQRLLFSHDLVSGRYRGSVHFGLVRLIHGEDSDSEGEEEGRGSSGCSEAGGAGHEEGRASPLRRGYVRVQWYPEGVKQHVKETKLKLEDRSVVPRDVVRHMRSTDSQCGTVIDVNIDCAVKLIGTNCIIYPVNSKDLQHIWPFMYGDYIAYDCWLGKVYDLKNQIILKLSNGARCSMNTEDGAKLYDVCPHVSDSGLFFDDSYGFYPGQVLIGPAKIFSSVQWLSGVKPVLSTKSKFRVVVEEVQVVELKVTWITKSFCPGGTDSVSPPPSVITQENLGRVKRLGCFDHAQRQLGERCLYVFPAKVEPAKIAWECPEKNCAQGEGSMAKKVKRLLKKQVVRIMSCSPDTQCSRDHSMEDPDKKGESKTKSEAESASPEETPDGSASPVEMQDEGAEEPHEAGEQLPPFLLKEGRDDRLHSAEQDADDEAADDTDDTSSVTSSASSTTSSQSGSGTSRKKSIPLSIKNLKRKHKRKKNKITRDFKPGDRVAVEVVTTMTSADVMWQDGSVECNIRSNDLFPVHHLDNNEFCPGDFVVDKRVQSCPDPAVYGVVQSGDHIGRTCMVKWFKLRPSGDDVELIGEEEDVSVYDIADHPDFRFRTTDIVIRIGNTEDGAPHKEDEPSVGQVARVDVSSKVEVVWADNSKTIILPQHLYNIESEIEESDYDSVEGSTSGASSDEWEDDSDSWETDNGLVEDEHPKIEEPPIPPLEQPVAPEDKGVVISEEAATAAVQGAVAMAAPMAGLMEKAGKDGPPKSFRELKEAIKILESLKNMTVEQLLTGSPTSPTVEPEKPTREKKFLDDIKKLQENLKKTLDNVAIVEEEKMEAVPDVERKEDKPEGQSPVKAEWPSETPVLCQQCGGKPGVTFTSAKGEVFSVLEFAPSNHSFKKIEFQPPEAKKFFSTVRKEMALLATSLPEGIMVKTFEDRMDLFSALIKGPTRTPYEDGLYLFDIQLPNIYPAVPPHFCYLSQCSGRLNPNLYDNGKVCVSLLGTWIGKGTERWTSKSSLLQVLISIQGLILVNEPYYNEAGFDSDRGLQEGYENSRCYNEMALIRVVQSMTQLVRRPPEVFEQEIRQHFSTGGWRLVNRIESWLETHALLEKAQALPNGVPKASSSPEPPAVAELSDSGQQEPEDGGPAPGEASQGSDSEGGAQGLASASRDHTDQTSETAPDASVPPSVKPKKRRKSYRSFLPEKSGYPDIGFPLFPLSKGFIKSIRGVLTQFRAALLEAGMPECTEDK
Chain of UniProt Q7Z7E8 (whole entry, looked up): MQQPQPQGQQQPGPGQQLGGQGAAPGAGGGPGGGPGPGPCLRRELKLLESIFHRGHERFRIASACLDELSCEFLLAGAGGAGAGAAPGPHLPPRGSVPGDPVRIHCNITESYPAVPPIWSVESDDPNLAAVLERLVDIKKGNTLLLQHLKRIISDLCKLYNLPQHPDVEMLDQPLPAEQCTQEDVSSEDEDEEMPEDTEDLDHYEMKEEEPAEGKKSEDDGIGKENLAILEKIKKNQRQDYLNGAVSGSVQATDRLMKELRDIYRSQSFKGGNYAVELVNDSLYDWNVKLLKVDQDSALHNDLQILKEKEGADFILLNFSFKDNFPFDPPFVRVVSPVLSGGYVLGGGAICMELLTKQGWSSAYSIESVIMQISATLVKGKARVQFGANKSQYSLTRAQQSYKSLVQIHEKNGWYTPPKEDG
Chain of UniProt Q969T4 (whole entry, looked up): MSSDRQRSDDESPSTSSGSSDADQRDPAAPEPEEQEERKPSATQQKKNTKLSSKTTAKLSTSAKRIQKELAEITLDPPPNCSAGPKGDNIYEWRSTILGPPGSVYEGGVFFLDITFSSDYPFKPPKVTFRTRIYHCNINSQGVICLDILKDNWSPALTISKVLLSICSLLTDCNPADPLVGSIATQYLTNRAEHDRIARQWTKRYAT
Chain of UniProt Q9NPD8 (whole entry, looked up): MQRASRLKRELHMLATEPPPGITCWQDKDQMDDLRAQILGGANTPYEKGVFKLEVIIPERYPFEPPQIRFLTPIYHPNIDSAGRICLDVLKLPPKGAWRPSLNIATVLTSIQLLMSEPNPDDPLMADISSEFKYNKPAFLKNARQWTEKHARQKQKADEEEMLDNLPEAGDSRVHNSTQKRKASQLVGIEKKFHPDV
Chain of UniProt Q712K3 (whole entry, looked up): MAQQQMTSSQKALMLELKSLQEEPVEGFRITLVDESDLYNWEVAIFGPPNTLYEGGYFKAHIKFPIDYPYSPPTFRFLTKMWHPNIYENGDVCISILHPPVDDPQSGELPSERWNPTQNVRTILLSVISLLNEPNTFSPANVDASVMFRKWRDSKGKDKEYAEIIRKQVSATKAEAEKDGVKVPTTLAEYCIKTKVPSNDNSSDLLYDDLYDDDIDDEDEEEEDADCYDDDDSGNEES
Chain of UniProt P62253 (whole entry, looked up): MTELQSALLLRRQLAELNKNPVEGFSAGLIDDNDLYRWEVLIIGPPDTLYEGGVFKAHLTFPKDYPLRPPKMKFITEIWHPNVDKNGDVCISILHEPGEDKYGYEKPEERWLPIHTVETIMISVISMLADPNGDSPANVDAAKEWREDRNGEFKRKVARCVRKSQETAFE
Chain of UniProt P63146 (whole entry, looked up): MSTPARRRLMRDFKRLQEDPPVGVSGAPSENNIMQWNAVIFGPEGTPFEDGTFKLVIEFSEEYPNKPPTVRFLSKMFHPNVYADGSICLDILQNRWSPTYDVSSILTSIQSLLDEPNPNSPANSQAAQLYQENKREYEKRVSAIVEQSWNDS
Chain of UniProt P51668 (whole entry, looked up): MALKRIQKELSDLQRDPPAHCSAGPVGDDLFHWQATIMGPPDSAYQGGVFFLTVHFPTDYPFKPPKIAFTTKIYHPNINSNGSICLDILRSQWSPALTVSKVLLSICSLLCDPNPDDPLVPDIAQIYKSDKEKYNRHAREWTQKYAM
Chain of UniProt Q8N2K1 (whole entry, looked up): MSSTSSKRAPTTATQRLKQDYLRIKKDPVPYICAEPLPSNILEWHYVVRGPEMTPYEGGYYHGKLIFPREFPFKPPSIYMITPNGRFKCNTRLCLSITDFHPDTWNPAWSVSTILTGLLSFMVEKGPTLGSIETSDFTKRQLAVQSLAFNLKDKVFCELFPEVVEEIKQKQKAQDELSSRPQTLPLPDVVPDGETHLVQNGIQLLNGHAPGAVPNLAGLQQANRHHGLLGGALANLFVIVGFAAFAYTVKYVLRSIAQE
Chain of UniProt P61081 (whole entry, looked up): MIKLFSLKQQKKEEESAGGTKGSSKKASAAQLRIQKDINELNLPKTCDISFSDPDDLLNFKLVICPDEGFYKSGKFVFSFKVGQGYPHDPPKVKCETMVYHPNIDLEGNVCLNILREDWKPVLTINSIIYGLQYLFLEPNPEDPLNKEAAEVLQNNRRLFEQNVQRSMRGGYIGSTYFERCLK
Chain of UniProt Q9Y385 (whole entry, looked up): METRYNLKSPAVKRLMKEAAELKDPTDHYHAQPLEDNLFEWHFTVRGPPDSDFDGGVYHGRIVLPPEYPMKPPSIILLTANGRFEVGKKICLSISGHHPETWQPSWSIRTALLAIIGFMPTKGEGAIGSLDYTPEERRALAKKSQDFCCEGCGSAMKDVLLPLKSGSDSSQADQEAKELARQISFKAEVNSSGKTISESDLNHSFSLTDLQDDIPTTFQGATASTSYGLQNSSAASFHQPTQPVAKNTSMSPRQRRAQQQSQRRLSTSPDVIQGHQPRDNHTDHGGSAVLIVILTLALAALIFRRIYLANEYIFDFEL
Chain of UniProt P68036 (whole entry, looked up): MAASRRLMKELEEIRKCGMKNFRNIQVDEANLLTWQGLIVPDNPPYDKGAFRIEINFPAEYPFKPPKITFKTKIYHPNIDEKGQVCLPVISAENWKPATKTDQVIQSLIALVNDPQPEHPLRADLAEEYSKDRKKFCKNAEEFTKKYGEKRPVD

Set 1
Sequence: KLWDINAHITCRLCSGYLIDATTVTECLHTFCRSCLVKYLEENNTCPTCRIVIHQSHPLQ (PCGF3 RING domain (UniProt Q3KNV8))
Technique: yeast two-hybrid
Medium: yeast
Notes: mostly zero background
Relative to: not given
Reading: higher = stronger interaction
Quantity: lacZ reporter activity
UBE2G1 UBC core domain (UniProt P62253): 0
UBE2D1 UBC core domain (UniProt P51668): 0
BIRC6 UBC core domain (UniProt Q9NR09): 0
UBE2I UBC core domain (UniProt P63279): 0
UBE2O UBC core domain (UniProt Q9C0C9): 0
UBE2Q1 UBC core domain (UniProt Q7Z7E8): 0
UBE2C UBC core domain (UniProt O00762): 0
UBE2T UBC core domain (UniProt Q9NPD8): 0
UBE2R2 UBC core domain (UniProt Q712K3): 0
UBE2J1 UBC core domain (UniProt Q9Y385): 0
UBE2Z UBC core domain (UniProt Q9H832): 0
UBE2B UBC core domain (UniProt P63146): 0
UBE2E3 UBC core domain (UniProt Q969T4): 0
UBE2L3 UBC core domain (UniProt P68036): 0
UBE2J2 UBC core domain (UniProt Q8N2K1): 0
UBE2M UBC core domain (UniProt P61081): 0

Set 2
Target: Interferon regulatory factor 7, full length, phosphomimetic (IRF7, Homo sapiens, UniProt Q92985, residues 1-503, S471D/S472D/S475D/S476D/S477D/S483D/S484D/S487D)
Technique: protein-binding microarray
Form: double-stranded DNA, one strand shown
Medium: in vitro
Concentration: 2200 nM top
Notes: 60-bp whole probe
Added: salmon DNA 0.4 mg/ml
Relative to: random background probes
Reading: higher = stronger binding
Quantity: fitted relative affinity
All sequences stand within: GCCTAGCAC … GTCTTGATTCGCTTGACGCTGCTG
Residues (chain): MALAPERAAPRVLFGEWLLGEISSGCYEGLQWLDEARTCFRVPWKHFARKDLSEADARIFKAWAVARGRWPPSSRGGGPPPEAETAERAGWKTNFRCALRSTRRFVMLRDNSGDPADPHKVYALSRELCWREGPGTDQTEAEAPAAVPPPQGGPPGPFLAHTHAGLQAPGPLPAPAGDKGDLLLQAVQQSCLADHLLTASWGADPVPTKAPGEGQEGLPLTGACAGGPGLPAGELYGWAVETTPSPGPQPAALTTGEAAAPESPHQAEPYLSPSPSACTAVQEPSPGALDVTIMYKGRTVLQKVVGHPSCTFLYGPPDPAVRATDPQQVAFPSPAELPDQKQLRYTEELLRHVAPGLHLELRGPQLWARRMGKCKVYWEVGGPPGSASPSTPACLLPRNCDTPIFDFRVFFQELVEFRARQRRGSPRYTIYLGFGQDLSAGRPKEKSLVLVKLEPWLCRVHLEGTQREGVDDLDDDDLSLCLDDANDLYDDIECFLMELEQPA
GAGGGTTCCCTTTTCCTGACGTGCTAG: 1.61 z-score
TTAGGTATCGGGACTGTGTTAGTGCTA: 0.11 z-score
AGGCTCATACATCTGGGTGGGTGCTAG: -0.335 z-score
GACGGTTTTCTTCTCCTGACGTGCTAG: 2.01 z-score
GACGATAGCGGGTATCGAGACGTGCTA: -0.307 z-score
GACGAAGTGAGTATCGAGACGTGCTAG: -0.335 z-score
TTAGGAGTGGGGACTGGGTTAGTGCTA: -0.678 z-score
TCATGTTGCTGTTTGAGACTGTGCTAG: 1.95 z-score
TTAGATCTCAGTCTCGATTAGTGCTAG: 0.442 z-score
TTAGGTTTCGGTTCGGGTTAGTGCTAG: 13.1 z-score
TTTCAGCTGTTTTTCTCACCGTGCTAG: 2.63 z-score
AACGAACTGAGTCTCGAGACGTGCTAG: 0.0695 z-score
GACGGACTTCTTCTCCTGACGTGCTAG: 0.541 z-score
TTAGGTCTCGATTTCGGTTAGTGCTAG: 3.69 z-score
GTCGGACTGCTACTGCTGACGTGCTAG: 0.143 z-score
TCAATTTTCTTTAACTCACTGTGCTAG: 0.883 z-score

Set 3
Target: CCNE1, cyclin fold, Cln2 fusion (human)
Technique: yeast growth competition, sequencing
Medium: yeast
Notes: weak parent motif
Relative to: not given
Reading: higher = stronger binding
Quantity: normalised enrichment score
Starting sequence: PKN2 docking peptide (human); VSAVQKLDFSDTM
CSAVQKLDFSDTM [V1C]: 1.37
VMAVQKLDFSDTM [S2M]: 0.923
VSAVQKLDASDTM [F9A]: 0.168
VVAVQKLDFSDTM [S2V]: 0.736
VSAVQKLDFSPTM [D11P]: 0.475
VSAVQYLDFSDTM [K6Y]: 0.0803
VQAVQKLDFSDTM [S2Q]: 0.608
VSAVQMLDFSDTM [K6M]: 0.784
VSAVQKADFSDTM [L7A]: -0.074
VSTVQKLDFSDTM [A3T]: 0.0301
VPAVQKLDFSDTM [S2P]: 0.77
VSAVQALDFSDTM [K6A]: 0.206
VSALQKLDFSDTM [V4L]: 0.226
VSAVQKLDFVDTM [S10V]: 0.823
VSAVQKLDFSFTM [D11F]: 0.672
VSAVQKLDFPDTM [S10P]: 0.474

Set 4
Target: JUNB, bZIP domain (human)
Technique: DHFR protein complementation
Medium: yeast
Notes: single substitutions, most at no-binding floor
Relative to: wild-type JUN-FOS pair
Reading: higher = stronger binding
Quantity: binding fitness
Starting sequence: JUN, bZIP domain (human); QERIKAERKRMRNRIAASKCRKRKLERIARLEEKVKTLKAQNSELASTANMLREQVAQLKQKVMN; partner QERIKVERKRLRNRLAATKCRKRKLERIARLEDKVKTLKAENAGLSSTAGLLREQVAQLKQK
K34W: -1.27 natural log
L31V: -1.34 natural log
L38D: -1.51 natural log
K36R: -0.977 natural log
Q55Y: -1.52 natural log
A46T: -0.96 natural log
R30W: -1.17 natural log
L52Y: -1.45 natural log
A57H: -1.18 natural log
S43P: -1.52 natural log
K34F: -1.09 natural log
Q55P: -1.53 natural log
A29V: -1.36 natural log
K36L: -1.31 natural log
A40Q: -0.838 natural log
A29D: -1.37 natural log
A49S: -1.42 natural log
A40Y: -1.36 natural log
T48M: -1.1 natural log
K39N: -1.39 natural log

Set 5
Target: Prothrombin, mature alpha-thrombin (F2, Homo sapiens, UniProt P00734)
Technique: aptamer microarray, sandwich
Form: DNA with 2'F-ANA
Medium: in vitro
Concentration: 200 nM
Notes: whole 15-mer aptamer, many near background
Added: Cy3 exosite-II aptamer, 400 nM
Reading: higher = stronger binding
Quantity: mean fluorescence intensity
Oligonucleotide: GGTTGGTGTGGTTGG
2'F-ANA at 1 2 3 4 5 6 7 10 11 12 15: 59 a.u.
2'F-ANA at 1 2 3 4 5 12 13: 93.3 a.u.
2'F-ANA at 3 4 5 11 12 13 15: 108 a.u.
2'F-ANA at 2 4 7 8 10 14: 68.4 a.u.
2'F-ANA at 2 3 4 5 6 9 10 12 15: 55.7 a.u.
2'F-ANA at 5 7 8 9 13: 59.2 a.u.
2'F-ANA at 3 5 8 9 11 12: 213 a.u.
2'F-ANA at 1 4 5 8 9 11 13 14 15: 46.3 a.u.
2'F-ANA at 2 3 4 5 6 7 10 11 13: 49.4 a.u.
2'F-ANA at 1 3 7 9 13 15: 226 a.u.
2'F-ANA at 4 7 10 12 13 14 15: 61.5 a.u.
2'F-ANA at 3 4 7 8 9 10 11 12 13 14: 194 a.u.
2'F-ANA at 2 5 9 10 11 12 14 15: 45 a.u.
2'F-ANA at 1 3 4 5 6 13 15: 49 a.u.
2'F-ANA at 2 5 6 8 9 10 11 13 14 15: 47.1 a.u.
2'F-ANA at 6 7 8 11 12 14: 233 a.u.

Set 6
Target: ABI1, truncated, D143A, DHFR fusion (Arabidopsis thaliana, UniProt P49597)
Technique: DHFR PCA, dose-response
Medium: yeast
Notes: Hill fit, mean, not affinity
Added: (+)-ABA, dose series
Reading: lower = more sensitive
Quantity: ABA EC50
Starting sequence: PYL1, truncated, DHFR fusion (Arabidopsis thaliana, UniProt Q8VZS8); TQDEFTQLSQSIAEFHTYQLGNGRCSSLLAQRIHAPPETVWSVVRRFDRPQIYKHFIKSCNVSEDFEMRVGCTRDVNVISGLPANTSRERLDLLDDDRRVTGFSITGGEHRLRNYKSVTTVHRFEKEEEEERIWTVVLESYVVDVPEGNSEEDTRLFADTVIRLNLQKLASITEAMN
S11E: 1.58 µM
K126N: 1.36 µM
F66E: 5.83 µM
M176Y: 3.7 µM
A170S: 8.64 µM
R69H: 3.09 µM
D3H: 4.98 µM
N149R: 466 µM
F124Y: 1.89 µM
S11I: 2.71 µM
A35G: 49.1 µM
T17K: 10.2 µM
E127R: 3.16 µM
F15R: 66.9 µM
K126T: 1.44 µM
D3M: 8.2 µM
L164Y: 1.64 µM
R111L: 18.3 µM
L93Y: 3.96 µM
S117A: 13.4 µM
E129C: 2.78 µM
C60L: 84.6 µM
A13T: 2.66 µM
T86K: 7.07 µM
V70K: 12.1 µM

Set 7
Target: Sal-like protein 4, full length isoform B (SALL4, Homo sapiens, UniProt Q9UJQ4-2, residues 1-616)
Technique: universal PBM
Form: double-stranded DNA, one strand shown
Medium: in vitro
Concentration: not given
Notes: 8-mer, flanks averaged, mean of replicates
Reading: higher = stronger binding
Quantity: E-score
Construct (chain): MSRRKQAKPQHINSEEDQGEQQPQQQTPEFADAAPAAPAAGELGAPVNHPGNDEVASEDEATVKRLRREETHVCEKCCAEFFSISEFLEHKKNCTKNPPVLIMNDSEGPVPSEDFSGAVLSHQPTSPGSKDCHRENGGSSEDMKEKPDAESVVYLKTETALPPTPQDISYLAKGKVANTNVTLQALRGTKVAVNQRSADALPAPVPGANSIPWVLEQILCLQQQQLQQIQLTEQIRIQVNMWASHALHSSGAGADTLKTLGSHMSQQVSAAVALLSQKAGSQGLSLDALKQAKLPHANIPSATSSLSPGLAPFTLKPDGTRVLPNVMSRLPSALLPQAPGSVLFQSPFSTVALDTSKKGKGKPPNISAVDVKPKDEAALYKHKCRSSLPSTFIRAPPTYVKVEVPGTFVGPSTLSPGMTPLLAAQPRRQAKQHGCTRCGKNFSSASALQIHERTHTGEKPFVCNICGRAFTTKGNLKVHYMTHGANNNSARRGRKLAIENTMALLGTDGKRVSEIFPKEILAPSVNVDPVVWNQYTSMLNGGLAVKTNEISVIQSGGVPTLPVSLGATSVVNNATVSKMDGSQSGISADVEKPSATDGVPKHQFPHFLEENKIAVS
CCAGGCGC: -0.323
CCGGCACA: -0.325
CAGTCTCC: -0.187
TCTTCGCA: 0.0195
CATTGCTA: 0.176
ACTGCAGA: -0.00845
AACGTTAT: 0.273
GCGGTGAA: -0.138
CCGAGAAG: -0.246
CATGCATA: 0.282
CGTCGAGC: -0.185
CCCGGACC: -0.376
ACCAATGG: -0.129
ATGAGAGC: -0.0101
CCCTGCGG: -0.307
ATTATAAG: 0.338
GGATTTAA: 0.135
ATACCTGG: -0.127
AGTGGTCC: -0.191
CTGTGGTC: -0.194
CTGCGCTA: -0.189
CTCCCGGC: -0.344
ACAATTCA: 0.204
GCTATCCA: -0.0728
TATCCCCA: 0.12
